Experimental data gathered from unrelated publications.
Every numbered part comes from another study and shows a few of its results, in no order.
Sequence of UniProt P46098 (whole entry, looked up): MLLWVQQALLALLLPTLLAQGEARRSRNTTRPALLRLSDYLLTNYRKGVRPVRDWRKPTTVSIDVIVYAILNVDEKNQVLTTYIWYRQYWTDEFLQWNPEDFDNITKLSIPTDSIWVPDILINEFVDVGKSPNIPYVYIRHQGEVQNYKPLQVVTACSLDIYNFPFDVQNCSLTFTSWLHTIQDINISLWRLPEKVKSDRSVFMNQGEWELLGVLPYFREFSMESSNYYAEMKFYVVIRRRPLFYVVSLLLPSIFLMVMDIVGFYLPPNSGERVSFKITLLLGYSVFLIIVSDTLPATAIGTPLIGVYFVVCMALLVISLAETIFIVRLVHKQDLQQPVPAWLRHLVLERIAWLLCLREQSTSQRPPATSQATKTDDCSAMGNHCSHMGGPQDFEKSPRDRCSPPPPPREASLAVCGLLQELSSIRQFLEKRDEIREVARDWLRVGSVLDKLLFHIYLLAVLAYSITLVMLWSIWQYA
Sequence of UniProt P28566 (whole entry, looked up): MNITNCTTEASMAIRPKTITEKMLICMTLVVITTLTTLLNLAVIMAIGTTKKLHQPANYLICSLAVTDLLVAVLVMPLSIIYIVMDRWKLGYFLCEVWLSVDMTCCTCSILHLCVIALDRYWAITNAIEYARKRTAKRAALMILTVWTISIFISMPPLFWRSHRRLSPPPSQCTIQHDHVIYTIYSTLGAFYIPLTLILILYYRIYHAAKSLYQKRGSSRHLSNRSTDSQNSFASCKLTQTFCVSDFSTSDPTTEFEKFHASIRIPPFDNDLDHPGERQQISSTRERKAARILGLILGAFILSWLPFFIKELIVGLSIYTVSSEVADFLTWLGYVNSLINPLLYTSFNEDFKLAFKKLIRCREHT

Block 1
Cell line: mouse MPNST tumor cells
Method: high-content immunofluorescence imaging
Measured: nuclear SOX9
Concentration: 10 µM
Time: 12 h
Setting: mean of 2 replicates
Relative to: DMSO control
Reading: higher = more nuclear SOX9
For `Nc1ncnc2n[nH]c(Nc3ccc(F)cc3)c12`, “nuclear SOX9 intensity” read 88.9 % of DMSO.
For `CC(C)(C)C1CCc2c(sc(NC(=O)c3ccco3)c2C(=O)O)C1` (stereo not drawn), “nuclear SOX9 intensity” read 84.3 % of DMSO.
`CCOc1cc2ncc(C#N)c(Nc3ccc(OCc4cccc(F)c4)c(Cl)c3)c2cc1NC(=O)/C=C/CN(C)C` — result for “nuclear SOX9 intensity”: 97.4 % of DMSO.
`O=S(=O)(O)CCS`: “nuclear SOX9 intensity” 88.9 % of DMSO.
For `Nc1cc(-c2ccncc2)c[nH]c1=O`, “nuclear SOX9 intensity” read 86.1 % of DMSO.
Under “nuclear SOX9 intensity”, `COc1cccc(OC)c1-c1cc(C(=O)NC2(C(=O)O)C3CC4CC(C3)CC2C4)nn1-c1ccc(C(=O)N(C)CCCN(C)C)cc1C(C)C` (stereo not drawn) is recorded as 98.2 % of DMSO.

Block 2
Cell line: HaCaT
Concentration: 100 µM
Time: 36 h
`Cc1cncc(CN2CCC(=C3c4ccc(Cl)cc4CCc4cccnc43)CC2)c1` has a viability of 5.38%.
`Cc1ccc(/C(=C\CN2CCCC2)c2ccccn2)cc1` has a viability of 75.6%.
`CN(C)[C@@H](CCOc1cccc2ccccc12)c1ccccc1` has a viability of 4.68%.
The viability of `Nc1cc(F)ccc1NC(=O)c1ccc(CNC(=O)/C=C/c2cccnc2)cc1` is reported as 6.75%.
`Clc1ccc(C(Cn2ccnc2)OCc2csc3c(Cl)cccc23)c(Cl)c1` (stereo not drawn) has a viability of 6.53%.
`CCCCCOC(=O)Nc1nc(=O)n([C@@H]2O[C@H](C)[C@@H](O)[C@H]2O)cc1F` has a viability of 44.5%.
With `Cc1c(NC(=O)c2cccnc2)c(=O)n(-c2ccccc2)n1C` the viability was 90.5%.
With `CN(C)CC[C@@H](c1ccc(Cl)cc1)c1ccccn1` the viability was 70.3%.
For `CCCCNc1cc(C(=O)O)cc(S(N)(=O)=O)c1Oc1ccccc1`, the viability was 100%.
`C[C@]12CCC(=O)C=C1C=C[C@@H]1[C@@H]2CC[C@@]2(C)[C@H]1CC[C@@]21CCC(=O)O1` gave a viability of 86.8%.

Block 3
Compound: Cc1cc2c(C(N)=O)c(N)n(-c3c(C)ccc(O)c3C)c2nc1C
Method: KINOMEscan
Concentration: 1000 nM
Relative to: control
The remaining binding was 1.2% (CSF1R).
CASK — remaining binding: 69%.
It gave 2.8% for remaining binding (RAF1).
BRAF — remaining binding: 0.8%.
SRC — remaining binding: 0.15%.
PIK4CB — remaining binding: 100%.
It gave 62% for remaining binding (WEE1).
The remaining binding was 1.3% (LCK).

Further values, each from its own experiment
Concentration: 10 µM
With `COc1cc(-c2cn(C3CCc4ccccc4N(CC(F)(F)F)C3=O)nn2)ccc1-n1ccc(C)n1` (stereo not drawn) the inhibition was -9.73% (5-hydroxytryptamine receptor 3A (HTR3A, Homo sapiens, UniProt P46098); binding, radioligand binding).
The inhibition of `COc1cc(N[C@@H]2CCCC[C@]2(O)C(F)(F)F)ccc1F` is reported as -4.13% (5-hydroxytryptamine receptor 1E (HTR1E, Homo sapiens, UniProt P28566); ligand displacement).
For `Cn1cncc1[C@@](O)(COc1ccc(C#N)cc1-c1ccc(OC(F)(F)F)cc1)c1ccc(C#N)cc1`, the membrane-permeable cells was 55.2% (HEK293T; high-content imaging; 24 h).
